Experimental data pooled from the literature.
Each numbered part is a random draw from the data of one study; scales do not carry over between parts. Changes are numbered by the printed parent chain.
Sequence of UniProt Q9XFM0 (whole entry, looked up): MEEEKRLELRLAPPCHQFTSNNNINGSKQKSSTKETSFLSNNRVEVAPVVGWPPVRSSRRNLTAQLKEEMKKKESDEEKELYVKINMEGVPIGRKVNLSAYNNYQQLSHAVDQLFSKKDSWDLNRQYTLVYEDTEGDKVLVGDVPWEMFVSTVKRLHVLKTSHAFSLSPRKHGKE
Sequence of UniProt Q9ZPY6 (whole entry, looked up): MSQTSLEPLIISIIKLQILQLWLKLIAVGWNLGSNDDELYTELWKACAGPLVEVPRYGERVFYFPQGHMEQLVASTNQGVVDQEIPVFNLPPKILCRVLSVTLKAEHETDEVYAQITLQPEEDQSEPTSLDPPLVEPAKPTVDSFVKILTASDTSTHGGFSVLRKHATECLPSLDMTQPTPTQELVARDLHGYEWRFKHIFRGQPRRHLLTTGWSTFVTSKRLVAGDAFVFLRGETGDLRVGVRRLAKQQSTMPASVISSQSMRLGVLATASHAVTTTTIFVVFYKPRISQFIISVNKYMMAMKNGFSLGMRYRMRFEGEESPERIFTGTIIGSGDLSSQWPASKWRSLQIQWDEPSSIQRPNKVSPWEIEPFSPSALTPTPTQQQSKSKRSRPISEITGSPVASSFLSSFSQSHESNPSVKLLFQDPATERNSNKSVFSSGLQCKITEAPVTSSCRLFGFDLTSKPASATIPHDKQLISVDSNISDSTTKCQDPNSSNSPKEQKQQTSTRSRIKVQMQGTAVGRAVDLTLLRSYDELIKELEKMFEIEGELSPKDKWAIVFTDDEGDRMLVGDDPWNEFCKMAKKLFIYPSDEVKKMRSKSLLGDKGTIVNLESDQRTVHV
Sequence of UniProt Q9ZTX8 (whole entry, looked up): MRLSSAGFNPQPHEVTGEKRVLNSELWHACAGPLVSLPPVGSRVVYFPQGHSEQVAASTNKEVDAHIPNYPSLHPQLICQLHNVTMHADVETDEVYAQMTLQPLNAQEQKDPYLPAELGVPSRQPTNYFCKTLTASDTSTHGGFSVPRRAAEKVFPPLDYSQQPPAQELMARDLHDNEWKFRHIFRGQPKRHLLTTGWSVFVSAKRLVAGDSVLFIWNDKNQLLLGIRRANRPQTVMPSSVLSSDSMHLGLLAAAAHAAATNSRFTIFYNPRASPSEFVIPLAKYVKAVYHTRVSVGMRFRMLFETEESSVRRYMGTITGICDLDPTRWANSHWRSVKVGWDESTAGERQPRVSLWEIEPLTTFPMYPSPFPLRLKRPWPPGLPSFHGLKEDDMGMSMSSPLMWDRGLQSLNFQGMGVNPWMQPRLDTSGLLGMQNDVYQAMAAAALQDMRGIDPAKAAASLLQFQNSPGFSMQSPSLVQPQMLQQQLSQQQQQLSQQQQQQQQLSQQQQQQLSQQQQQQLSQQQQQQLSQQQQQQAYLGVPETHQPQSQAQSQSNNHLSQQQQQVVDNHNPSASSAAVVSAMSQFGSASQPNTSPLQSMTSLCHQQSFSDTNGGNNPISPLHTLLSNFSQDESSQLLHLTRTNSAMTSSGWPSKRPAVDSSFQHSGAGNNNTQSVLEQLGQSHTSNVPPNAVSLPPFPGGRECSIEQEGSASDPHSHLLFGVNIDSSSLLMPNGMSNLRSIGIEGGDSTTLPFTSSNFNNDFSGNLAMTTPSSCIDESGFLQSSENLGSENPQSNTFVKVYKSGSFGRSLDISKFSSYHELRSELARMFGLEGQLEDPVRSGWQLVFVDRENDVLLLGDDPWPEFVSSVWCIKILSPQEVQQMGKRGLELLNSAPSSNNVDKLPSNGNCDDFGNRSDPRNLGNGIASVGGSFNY

Study 1
Molecule: B1 (IAA10)
Method: two-hybrid
Reading: higher = firmer interaction
B1: IAA10 (Arabidopsis thaliana, UniProt Q38828); chain MNGLQEVCSSSGSVMIGLPAEEDENAAHSSEDSSCPDESVSETELDLALGLSIGRRKVRSSLSSSSSSLTRESGTKRSADSSPAAASNATRQVAVGWPPLRTYRINSLVNQAKSLATEGGLSSGIQKETTKSVVVAAKNDDACFIKSSRTSMLVKVTMDGVIIGRKVDLNALDSYAALEKTLDLMFFQIPSPVTRSNTQGYKTIKETCTSKLLDGSSEYIITYQDKDGDWMLVGDVPWQMFLGSVTRLRIMKTSIGAGVGK
| partner | how to read | positive tests |
| --- | --- | --- |
| ARF11 500-622 (Arabidopsis thaliana, UniProt Q9ZPY6) | baseline: out of 2 tests | 0 |
| ARF6 790-935 (Arabidopsis thaliana, UniProt Q9ZTX8) | baseline: out of 4 tests | 2 |
| IAA28 (Arabidopsis thaliana, UniProt Q9XFM0) | baseline: out of 4 tests | 2 |

Study 2
Target: ABI1, truncated, D143A, DHFR fusion (Arabidopsis thaliana)
Method: DHFR PCA, deep sequencing
Matrix: yeast
Notes: methotrexate growth selection, single substitutions
With: (+)-ABA 0.11 µM
Baseline: wild-type fitted maximum
Reading: higher = stronger binding
Parent: PYL1, truncated, DHFR fusion (Arabidopsis thaliana); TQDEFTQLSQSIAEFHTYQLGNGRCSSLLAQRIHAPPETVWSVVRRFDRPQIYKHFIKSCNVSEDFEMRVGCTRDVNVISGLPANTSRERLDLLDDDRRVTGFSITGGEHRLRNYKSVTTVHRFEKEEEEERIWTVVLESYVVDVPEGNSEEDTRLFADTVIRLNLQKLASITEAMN
| Change | relative binding score |
| --- | --- |
| K116N | 5.46% |
| E4K | 2.98% |
| R32Y | 18.6% |
| P36C | 3.04% |
| L169A | 9.94% |
| R88M | 8.34% |
| I162P | 4.82% |
| L28C | 16.6% |
| S171N | 39% |
| D153F | -15.7% |
| S140M | 9.08% |
| A84M | 61.1% |
| E14Q | 13.6% |
| S117W | -4.95% |
| F157P | 2.28% |
| V121W | -3.38% |
| H16Q | -0.433% |
| A175G | 39.7% |
| S59C | 5.55% |
| L91G | -2.51% |
| Q51S | 1.37% |
| T119P | -6.52% |
| R45M | -8.9% |
| N165C | 4.19% |
| S150T | 51.3% |

Study 3
Target: RNA binding protein fox-1 homolog 2, RRM domain, GST-SBP tag (RBFOX2, Homo sapiens, UniProt O43251-10, residues 100-194)
Method: RNA Bind-n-Seq
Molecule type: RNA
Matrix: in vitro
Concentration: 365 nM
Notes: natural RNA segment, single round, ends assumed
Baseline: no-protein control
Reading: higher = stronger binding
All sequences stand within: GGGAGUUCUACAGUCCGACGAUC … UGGAAUUCUCGGGUGCCAA
Residues (chain): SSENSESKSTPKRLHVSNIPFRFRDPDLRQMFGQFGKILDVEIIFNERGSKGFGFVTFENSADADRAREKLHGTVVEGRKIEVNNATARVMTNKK
| Strand | RBNS enrichment (R) |
| --- | --- |
| GGGGAGAUUGAAGACCUGGCUUUAGGGCCUGAUGGCAAGUUGGUAACCGUGGGCCGGGACCUUAAGGCCUCUGUGUGGCAGAAGGAUCAGCUGGUGACACAGCUGCACUG | 0.383 |
| CAAACAGUACAUCUGGAGCCUGGAGAUAUCCUCAGGAAGCACAUCUGUAGUGCACUCCCAGCAGGCCAUGGACUAGUCACUAACCCCACACUCAAAGGGGCAUGGGUGGU | 0.755 |
| CGGCCCCAUUUACUGACCCCGCCCCCUUUUCGAGGUUAUGCUCACCUGGUCAGCUCCUCACGUAAUUGGGGGUGGAGGGAAAGCAUGGUGGUGCCCUGGGCCGUCCCUGU | 0.247 |
| GAGAAAUAGGUACCAGUCCUCAGGACGAGCCAGGAUCCCUCAGGGGAGAGGGCAGACGAUGCCUGGGAUCCAGCUGACAGGAGGGUCCAGCCCGCACUACAGAGGCUGGG | 0.468 |
| UUUCUUUUGUACUUUCCUAUAGAUGCUAUAGCAUUUGAGUGUGGCAAUAUUUUUGUUGUGUAUAGAUGUCUAAGAACCAACACUACUCAGUCUCCUGCUAGUCUGACUCC | 0.398 |
| AGUAAUUUUGCCAUCCUAGGCUUAAAUGCAAUAUUCCUGGUAUUAUUUACAAUGCAGAAUUUUUUGAGUAAUUCUAGCUUUCAAAAAUUAGUGAAGUUCUUUUACUGUAA | 0.485 |
| UGCUUAAAAAUAUUUUCCUCACAAAAUUACUAUCAGGUCUGCCAUAAAUUCUUCCUAAGUUCUCUGCUCAUUAAUCUUCAGACCACAGUUACUAAAACUGUGGCUUAGUA | 0.497 |
| UUUGGUUUAUUUUCUUCCCAUGUCGCCCAGAGAUUACUUGUGUGUGUGCCAUUCUGCUCAAAACUAAAUGGUGGUCAGGUUCAAGUAAAGAAAAAUAAAACAAGCUGCAU | 0.321 |

Study 4
Target: CCNE1, cyclin fold, Cln2 fusion (human)
Method: yeast growth competition, sequencing
Matrix: yeast
Notes: strong parent motif
Baseline: not given
Reading: higher = stronger binding
Parent: BRCA2 docking peptide (human); PSIKRNLLNEFDR
| Change | normalised enrichment score |
| --- | --- |
| L8P | 0.011 |
| N6K | 1.03 |
| P1Y | 1.64 |
| D12S | 1.26 |
| E10H | 1.18 |
| K4W | -0.656 |
| R13D | 2.43 |
| L7Q | 0.238 |
| N9R | 1.9 |
| F11K | 0.209 |
| N9M | 1.17 |
| L7V | -0.188 |
| E10F | 1.33 |
| D12E | 1.95 |
| R5K | 0.803 |
| N6R | 0.437 |
| D12L | 0.541 |
| I3L | 1.02 |
| L7K | 0.311 |

Repeated from above (study 2):
| Change | relative binding score |
| --- | --- |
| V121W | -3.38% |
| P36C | 3.04% |
| R32Y | 18.6% |
| S140M | 9.08% |
| H16Q | -0.433% |
| E14Q | 13.6% |
| S150T | 51.3% |
| R45M | -8.9% |
